Measurements gathered from unrelated publications.
Compare with care: the assays were run in different laboratories.
CDC25B: M-phase inducer phosphatase 2 (CDC25B, Homo sapiens, UniProt P30305)

Compound	target	assay	test system	setting	inhibition
CC(=O)C12NC(C)(C)CC1(C)C(=O)C1=C2c2c(c3c4n2C(C)(C)CC2=C4C4(CC(C)(C)NC(C)(C4)C2=O)CC3(C)C)C(=O)C(C)(C)N1 (single isomer, unassigned; (-))	Voltage-dependent N-type calcium channel subunit alpha-1B (Homo sapiens, UniProt Q00975)	ion current, inhibitor, patch clamp	HEK-293T	10 µM	8.63%
COc1ccc([C@@]23Oc4cc(OC)cc(OC)c4[C@]2(O)[C@@H]2OC(=O)[C@@H]2C3c2ccccc2)cc1 (mixture of isomers)	Palmitoyl-protein thioesterase ABHD10, mitochondrial (Homo sapiens, UniProt Q9NUJ1)	enzyme activity in cells, inhibitor	PC-3	0.1 µM	> 90%
O=C1NCCC(O)c2cc(Cl)c(Cl)cc21 (stereo not drawn)	Poly [ADP-ribose] polymerase 1 (PARP1, Homo sapiens, UniProt P09874)	enzyme activity, inhibitor		10 µM	0%
COc1cc(C(=O)NC2CCC(N3CCN(CC4CCC5(CCCC5)C4)CC3)CC2)c(F)cc1Nc1ncc2c(n1)N(C1CCCC1(F)F)CC(F)(F)C(=O)N2C (stereo not drawn)	Ephrin type-B receptor 4 (EPHB4, Homo sapiens, UniProt P54760)	cell-free assay, TR-FRET		10 µM	2.77%
O=C(NCc1ccccc1)c1cc(S(=O)(=O)NCc2ccccc2)ccc1Cl	Ectonucleoside triphosphate diphosphohydrolase 1 (Homo sapiens, UniProt P49961)	enzyme activity, inhibitor, absorbance		100 µM	42%
CCNC(=O)Nc1ccc(OC/C=C\COc2ccc(NC(=O)NCC)cc2)cc1	Transcription antitermination protein NusB, with NusE (nusB, Bacillus subtilis, UniProt P54520)	protein-protein interaction, inhibitor, competitive ELISA		25 µM, 15 min preincubation, 37 °C, with: 200 nM GST-NusE	72%
CC(=O)c1cnc(N)nc1N1CC[C@H]1c1nn2ccc(Cl)c2c(=O)n1-c1ccccc1	Sodium channel protein type 5 subunit alpha (SCN5A, Homo sapiens, UniProt Q14524)	ion current, inhibitor	CHO	3 µM	< 10%
CCC(NC(=O)C(CC(C)C)NC(=O)NCc1ccccc1)C(=O)C(=O)NCc1cc(OC)cc(OC)c1 (stereo not drawn)	Calpain-1 catalytic subunit (Capn1, Mus musculus, UniProt O35350)	brain enzyme activity	mouse, controlled cortical impact TBI, brain	intraperitoneal, 10 mg/kg, 24 h after TBI	~40%
O=C(CCCOc1ccc(Cl)cc1Cl)N/N=C/c1ccc[nH]1	1-deoxy-D-xylulose-5-phosphate synthase (dxs, Deinococcus radiodurans, UniProt Q9RUB5)	enzyme activity, inhibitor		120 µM	14%
O=C(/C=C/c1ccccc1)NCc1cn([C@H]2O[C@H](CO)[C@@H](O)[C@H](O)[C@H]2O)nn1	Lysosomal alpha-glucosidase (GAA, Homo sapiens, UniProt P10253)	enzyme activity, inhibitor, fluorescence		1.43 mM, pH 4, lysate	56%
COc1ccc(-c2ocnc2-c2cc(Br)c(OC)c(OC)c2)cc1OCCCC(=O)NO	Protein deacetylase HDAC6 (HDAC6, Homo sapiens, UniProt Q9UBN7)	enzyme activity, inhibitor, fluorescence		10 µM	90%
COCCOC(=O)Nc1ccc2c(c1)c(Cc1ccc(C(=O)NS(=O)(=O)c3ccc(C(F)(F)F)cc3)cc1OC)cn2C	Tumor necrosis factor receptor superfamily member 1A (Homo sapiens, UniProt P19438)	NF-κB reporter gene, luciferase reporter	HEK293 cells	up to 250 nM, with: TNF 10 ng/mL	35 to 42%
Cc1cc(C#N)cc(C)c1Oc1cc(Nc2ccc(C#N)cn2)nc2ccncc12	Gag-Pol polyprotein, reverse transcriptase (gag-pol, Human immunodeficiency virus type 1 group M subtype B, UniProt P04585)	enzyme activity, inhibitor, ELISA		1 µM	77.2%
O=C(O[C@@H]1Cc2c(O)cc(O)cc2O[C@@H]1c1cc(O)c(O)c(O)c1)c1cc(O)c(O)c(O)c1	Sucrase-isomaltase, intestinal (Si, Rattus norvegicus, UniProt P23739)	enzyme activity, inhibitor	rat intestinal brush border vesicles	10 µM	92.7%
COCCOCCSc1nc(N)c2c(F)c(C#N)c(F)c(Cl)c2n1	CDC25B	enzyme activity, inhibitor, fluorescence		20 µg/mL	20.4%
CCCCC(C)Sc1nc2c([nH]1)c(=S)n(C)c(=O)n2C (stereo not drawn)	Glucocorticoid receptor (Nr3c1, Rattus norvegicus, UniProt P06536)	reporter gene	T47D/A1-2	10 µM, with: dexamethasone	inactive
C=CCSc1nc(N)c2c(F)c(C#N)c(F)c(F)c2n1	CDC25B	enzyme activity, inhibitor, fluorescence		20 µg/mL	99.6%
C[Si]1(C[C@H](CN)CC(=O)O)CCCC1	Voltage-dependent calcium channel subunit alpha-2/delta-1 (Rattus norvegicus, UniProt P54290)	[3H]gabapentin binding	rat cerebral cortex membranes	6.25 µM, with: [3H]gabapentin 20 nM	68%

A few entries again:
Compound	target	assay	test system	setting	inhibition
COCCOCCSc1nc(N)c2c(F)c(C#N)c(F)c(Cl)c2n1	CDC25B	enzyme activity, inhibitor, fluorescence		20 µg/mL	20.4%
COc1cc(C(=O)NC2CCC(N3CCN(CC4CCC5(CCCC5)C4)CC3)CC2)c(F)cc1Nc1ncc2c(n1)N(C1CCCC1(F)F)CC(F)(F)C(=O)N2C (stereo not drawn)	Ephrin type-B receptor 4 (EPHB4, Homo sapiens, UniProt P54760)	cell-free assay, TR-FRET		10 µM	2.77%
